Published values from different studies.
± gives the spread as reported.

The EC50 of `CO[C@H]1/C=C\C=C(/C)C(=O)NC2=CC(=O)C(NCCN(C)C)=C(C[C@@H](C)C[C@H](OC)[C@H](O)[C@@H](C)/C=C(\C)[C@@H]1OC(N)=O)C2=O` is reported as 48 nM (Kasumi 1; cell growth or viability, XTT).
The EC50 of `CC1(C)CC(C)(C)c2cc(N/C(S)=N/c3ccc([N+](=O)[O-])cc3)ccc2S1` is reported as 7550 nM (786-0; cell growth or viability; 48 h).
`hexamidine` gave an EC50 of 245000 ± 15500 nM (WM-115 melanoma, high S100B, scrambled shRNA; cell growth, SYBR Green proliferation).
For `NCC(=O)O`, the EC50 was 104000 nM (rat dissociated neurons; chloride current, agonist, perforated patch clamp; pH 7.4, bicarbonate-free).
`CN(C)/N=N/c1[nH]cnc1C(N)=O` has an EC50 of 2900 nM (Kasumi 1; cell growth or viability, XTT).
`CNC(=O)c1cc(O[C@H]2CC[C@H](NC(=O)Nc3ccc(Cl)c(C(F)(F)F)c3)CC2)ccn1` has an EC50 of 7000 nM (SK-BR-3; cell growth or viability, MTT; 72 h).
`O=C(CCCCCC(=O)NN=Cc1ccc(-c2ccccc2)cc1)NO` gave an EC50 of 290 nM (mouse primary forebrain neurons; histone H4K12 acetylation; 24 h).
`C[C@]12CC[C@@H]3C(=CC=C4C[C@@H](O)CC[C@]43C)[C@@H]1CC[C@@H]2C(=O)CO` has an EC50 of 130 nM (SK-MEL-188; cell growth or viability, MTT; 48 h).
For `CCCCC[C@H](O)/C=C/[C@H]1CCC(=O)[C@@H]1C/C=C\CCCC(=O)O`, the EC50 was 35.8 ± 14.2 nM (rat bone marrow cells; alkaline phosphatase activity, activator; 9 days).
For `C[C@]12CCC(=O)C=C1CC[C@@H]1[C@@H]2[C@@H](O)C[C@@]2(C)[C@H]1CC[C@]2(O)C(=O)CO`, the EC50 was 320 nM (Kasumi 1; cell growth or viability, XTT).
With `CCC#CC[C@H](C)[C@H](O)/C=C/[C@H]1CC(F)(F)C(=O)N1CCCCCCC(=O)O` the EC50 was 8.4 nM (rat bone marrow cells; alkaline phosphatase activity, activator; 9 days, dried on plates 24 days).
`COc1cc2c(cc1OC)CN(CCCCn1ccc3ccccc31)CC2` has an EC50 of over 100000 nM (BxPC-3, AsPC-1, PANC-1, Panc02; cytotoxicity; 48 h).
With `CC(=O)N(c1nc(COC(=O)c2ccsc2)cs1)c1ccccc1F` the EC50 was 10000 nM (SK-BR-3; cell growth or viability, MTT; 48 h).
For `C[C@H]1C[C@H]2[C@@H]3CCC4=CC(=O)C=C[C@]4(C)[C@@]3(F)[C@@H](O)C[C@]2(C)[C@@]1(O)C(=O)CO`, the EC50 was 28 nM (Kasumi 1; cell growth or viability, XTT).
`CC[C@H](C)[C@H](NC(=O)[C@H](CCC(=O)O)NC(=O)[C@H](CC(=O)O)NC(=O)CNC(=O)[C@H](CC(C)C)NC(=O)[C@H](CCCNC(=N)N)NC(=O)[C@H](CCCNC(=N)N)NC(=O)[C@H](CC(C)C)NC(=O)CNC(=O)[C@H](CCC(N)=O)NC(=O)[C@@H](NC(=O)[C@H](CCSC)NC(=O)[C@H](Cc1c[nH]c2ccccc12)NC(=O)[C@@H](NC(=O)[C@H](CCC(=O)O)NC(=O)[C@@H]1CCCN1C(=O)[C@H](CCCNC(=N)N)NC(C)=O)[C@@H](C)CC)[C@@H](C)O)C(=O)N[C@@H](CC(N)=O)C(=O)N[C@@H](C)C(=O)N[C@@H](Cc1ccc(O)cc1)C(=O)N[C@@H](Cc1ccc(O)cc1)C(=O)N[C@@H](C)C(=O)N[C@@H](CCCNC(=N)N)C(N)=O` gave an EC50 of over 100000 nM (MDA-MB-231, permeabilized; mitochondrial depolarization, BH3 profiling, JC-1; 3 h).
The EC50 of `CCCCC[C@H](O)/C=C/[C@H]1CC(F)(F)C(=O)N1CCCCCCC(=O)O` is reported as 10.6 ± 2.6 nM (rat bone marrow cells; alkaline phosphatase activity, activator; 9 days).
The EC50 of `N=C(N)c1ccc(OCCCCCOc2ccc(C(=N)N)cc2)cc1` is reported as 26000 ± 4000 nM (WM-115, S100B shRNA; cell growth, SYBR Green; low S100B).
`CCCCCCCCCCCCC/C=C/[C@@H](O)[C@@H](N)COP(=O)(O)O` has an EC50 of 1.9 nM (human atrial myocytes; GIRK current, activator, whole-cell patch clamp; baseline: carbachol 20 µM response).
`CCCCC[C@H](O)/C=C/[C@H]1CCC(=O)[C@@H]1CCCCCCC(=O)O` gave an EC50 of 95.8 ± 21.9 nM (rat bone marrow cells; alkaline phosphatase activity, activator; 9 days).
With `CC=CC(=O)N(CC)c1ccccc1C` (mixture of isomers) the EC50 was 12500 nM (Kasumi 1; cell growth or viability, XTT).
`O=C(CC(O)(c1nc2ccccc2s1)C(F)(F)F)c1cccc(Br)c1` (centres unmarked) gave an EC50 of 11000 nM (SK-BR-3; cell growth or viability, MTT; 48 h).
For `CNC(=O)COc1cc2cc(Nc3nc(N4CCC(C(=O)NCCCCCCCNC(=O)C[C@@H]5N=C(c6ccc(Cl)cc6)c6c(sc(C)c6C)-n6c(C)nnc65)CC4)ncc3Cl)cc(OC)c2n(C)c1=O`, the EC50 was 1 to 10 nM (DLBCL cell lines; cell viability, PrestoBlue; 72 h).
For `C=CCNC1=C2C[C@@H](C)C[C@H](OC)[C@H](O)[C@@H](C)/C=C(\C)[C@H](OC(N)=O)[C@@H](OC)/C=C\C=C(/C)C(=O)NC(=CC1=O)C2=O`, the EC50 was 1100 nM (Kasumi 1; cell growth or viability, XTT).
